# Measurements from different studies.
# Each line is one published result; not all experiments were run side by side. ± marks the error that the study gave.
SMILES,tested on,assay,system,conditions,how to read,measurement,result
COC(Cn1ccn2cc(C(=O)NCc3ccc(F)cc3F)c(=O)c(O)c2c1=O)OC,human immunodeficiency virus 1,single-round vector infection,integrase S230N,,,EC50,5.2 ± 0.7 nM
O=C1Nc2ccc(Cl)cc2[C@@](C#CC2CC2)(C(F)(F)F)O1,HIV-1,"viral replication, single-round infection",RT mutant K101P/V179I,,,EC50,35.1 ± 2.9 nM
CCCC(=O)OCSc1ccccc1C(=O)NCCC(N)=O,HIV-1,viral replication,"human PBMC, subtype G JV1083, CCR5-tropic clinical isolate",,,EC50,3450 ± 1900 nM
COCC(C)n1ccn2cc(C(=O)NCc3ccc(F)cc3F)c(=O)c(O)c2c1=O (stereo not shown),human immunodeficiency virus 1,single-round vector infection,integrase R263K,,,EC50,2.8 ± 0.3 nM
Cc1cn([C@H]2C[C@H](N=[N+]=[N-])[C@@H](CO)O2)c(=O)[nH]c1=O,HIV-1,viral replication,"human PBMC, subtype A 92RW009, CCR5-tropic clinical isolate",,,EC50,4.03 ± 2.06 nM
CC(C)=CCC/C(C)=C/Cn1ccn2cc(C(=O)NCc3ccc(F)cc3F)c(=O)c(O)c2c1=O,human immunodeficiency virus 1,single-round vector infection,integrase G118R,,,EC50,165 ± 5.4 nM
NC(=O)CCNC(=O)c1ccccc1S,HIV-1,viral replication,"human PBMC, subtype A 92UG029, CXCR4-tropic clinical isolate",,,EC50,6820 ± 2130 nM
COC(CN1CCn2cc(C(=O)NCc3ccc(F)cc3F)c(=O)c(O)c2C1=O)OC,human immunodeficiency virus 1,single-round vector infection,integrase G118R,,,EC50,> 33 nM
COc1ccccc1-c1cccc(CN2CCCC(C(=O)NCc3ccc(F)cc3)C2)c1 (stereo not shown),SARS-CoV-2,cytopathic effect,USA_WA1/2020,"retest, 8-point, duplicates",,maximum response,74.1%
N#CC(C#N)=NNc1cccc(Cl)c1,Cryptosporidium parvum,"parasite growth, imaging",HCT-8,24 h,,EC50,5000 nM
O=c1ccn([C@@H]2O[C@H](CO)[C@@H](O)[C@H]2O)c(=S)[nH]1,Japanese encephalitis virus,viral replication,BHK-21,,,EC50,4800 nM
Cn1cnc(Cn2c(=O)[nH]/c(=N\c3cc4cn(C)nc4cc3Cl)n(Cc3cc(F)c(F)cc3F)c2=O)n1,,,"human, severe renal impairment","oral, 375 mg, treatment-related decreased GFR, Moderate severity",,patients with adverse event,0%
C[C@H](NP(=O)(OC[C@@]1(F)O[C@@H](n2ccc(N)nc2=O)C(F)(F)[C@@H]1O)Oc1ccccc1)C(=O)OCc1ccccc1 (stereo partly shown),varicella-zoster virus,"viral replication, plaque reduction","HEL fibroblasts, TK-deficient 07-1",,,EC50,2000 to 3000 nM
Cc1cc(/C=C/C#N)cc(C)c1-n1cnc2cnc(Nc3ccc4cc(C#N)ccc4c3)nc21,HIV-1,"viral replication, single-round infection",RT mutant K101E/M184V,,,EC50,< 5 nM
Cc1cc(/C=C/C#N)cc(C)c1Nc1ccnc(Nc2ccc(C#N)cc2)n1,HIV-1 GH9,viral replication,"TZM-bl, K101P/K103N/V108I",,,EC50,> 273 nM
Cc1cc(/C=C/C#N)cc(C)c1Nc1nc(Nc2ccc3cc(C#N)ccc3c2)ncc1N,HIV-1,"viral replication, single-round infection",RT mutant V106A/F227L/L234I,,,EC50,< 5.4 nM
CC[C@H](C)[C@H](NC(=O)[C@H](CC(C)C)NC(=O)[C@H](Cc1c[nH]c2ccccc12)NC(=O)[C@H](CCC(N)=O)NC(=O)[C@@H](NC(=O)[C@H](Cc1ccccc1)NC(=O)[C@H](C)NC(=O)[C@H](CCCCNC(=O)COCCOCCNC(=O)COCCOCCNC(=O)CC[C@H](NC(=O)CCCCCCCCCCCCCCCCCCC(=O)O)C(=O)O)NC(=O)[C@H](CCC(N)=O)NC(=O)[C@H](C)NC(=O)[C@@H](NC(=O)[C@H](CCCCN)NC(=O)[C@H](CC(=O)O)NC(=O)[C@H](CC(C)C)NC(=O)C(C)(C)NC(=O)[C@@H](NC(=O)[C@H](CO)NC(=O)[C@H](Cc1ccc(O)cc1)NC(=O)[C@H](CC(=O)O)NC(=O)[C@H](CO)NC(=O)[C@@H](NC(=O)[C@H](Cc1ccccc1)NC(=O)[C@@H](NC(=O)CNC(=O)[C@H](CCC(=O)O)NC(=O)C(C)(C)NC(=O)[C@@H](N)Cc1ccc(O)cc1)[C@@H](C)O)[C@@H](C)O)[C@@H](C)CC)[C@@H](C)CC)C(C)C)C(=O)N[C@@H](C)C(=O)NCC(=O)NCC(=O)N1CCC[C@H]1C(=O)N[C@@H](CO)C(=O)N[C@@H](CO)C(=O)NCC(=O)N[C@@H](C)C(=O)N1CCC[C@H]1C(=O)N1CCC[C@H]1C(=O)N1CCC[C@H]1C(=O)N[C@@H](CO)C(N)=O,,refers to: anti-drug antibodies,healthy subjects,"0.5 mg, postbaseline, multiple ascending dose, titre ≥1:20",,subjects with treatment-induced ADA,0%
COc1ccc(Nc2nc(Nc3ccc(OC)cc3OC)nc(N3CCOCC3)n2)c(OC)c1,SARS-CoV-2,"cytopathic effect, cell-based CPE",USA_WA1/2020,"round 2, 5-point dilution",,maximal response,90.2%
Cc1cc(/C=C/C#N)cc(C)c1Nc1nc(Nc2ccc(/C=C/C#N)cc2)ncc1N,HIV-1,"viral replication, single-round infection",RT mutant M184V,,,EC50,1.1 ± 0.2 nM
Nc1ncnc2c([C@@H]3N[C@H](CO)[C@@H](O)[C@H]3O)c[nH]c12,Venezuelan equine encephalitis virus,viral replication,"HeLa, SH3",1.6 µM,,inhibition,0.2%
CC(C)CCCC(C)CCN1CCn2cc(C(=O)NCc3ccc(F)cc3F)c(=O)c(O)c2C1=O (stereo not shown),human immunodeficiency virus 1,single-round vector infection,integrase S230N,,,EC50,> 30 nM
Cc1cc(/C=C/C#N)cc(C)c1-n1cnc2cnc(Nc3ccc4cc(/C=C/C#N)ccc4c3)nc21,HIV-1,"viral replication, single-round infection",RT mutant V106A,,,EC50,> 5000 nM
CNC(=O)[C@@H](NC(=O)[C@H](CC(C)C)[C@H](O)C(=O)NO)C(C)(C)C,human fibrinogen,SDS-PAGE,Daboia russelii,"concentration not given, unit not given, added: AP venom",reference: untreated fibrinogen,remaining fibrinogen Aα chain,0.632
Cc1cc2cc(C#N)ccc2c(C)c1Nc1ncnc(Nc2ccc(C#N)cc2)n1,HIV-1 K103N/Y181C,viral replication,T-cells,,,EC50,< 10 nM
Cc1cc(/C=C/C#N)cc(C)c1-n1cnc2cnc(Nc3ccc(/C=C/C#N)cc3)nc21,HIV-1,"viral replication, single-round infection",RT mutant K101P,,,EC50,280 ± 27 nM
